Measurements gathered from unrelated publications.
Each numbered part is a random draw from the data of one study; scales do not carry over between parts. Substitutions count along the parent as printed.

Block 1 — method: RNA Bind-n-Seq; molecule type: RNA; sample: in vitro; concentration: 20 nM; notes: 6-mer, flanks averaged, single round; with: 150 mM LiCl; relative to: input library; reading: higher = stronger binding
Target: TAR DNA-binding protein 43, full length, His tag (TARDBP, Homo sapiens, UniProt Q13148, residues 1-414)
Sequence | 6-mer enrichment (R)
UGUACG | 1.04
CAUAGU | 0.893
GCUGUC | 0.939
GCUUAC | 0.878
CAAGCG | 0.891
ACCGUU | 0.861
UGGUCA | 0.914
CCUAAC | 0.858
GUGAAU | 1.24
UCUCCC | 1.1
AAGUGG | 1.15
CCGCAC | 0.929
UCCGCA | 0.864
GCUUUG | 1.06
AUUUCC | 0.958
GGCCGG | 1.1
CUAACG | 0.798

Block 2 — target: CCNE2, cyclin fold, Cln2 fusion (human); method: yeast growth competition, sequencing; sample: yeast; notes: strong parent motif; relative to: not given; reading: higher = stronger binding
Starting sequence: INSM1 docking peptide (human); PKAIRKLHFEDEV; partner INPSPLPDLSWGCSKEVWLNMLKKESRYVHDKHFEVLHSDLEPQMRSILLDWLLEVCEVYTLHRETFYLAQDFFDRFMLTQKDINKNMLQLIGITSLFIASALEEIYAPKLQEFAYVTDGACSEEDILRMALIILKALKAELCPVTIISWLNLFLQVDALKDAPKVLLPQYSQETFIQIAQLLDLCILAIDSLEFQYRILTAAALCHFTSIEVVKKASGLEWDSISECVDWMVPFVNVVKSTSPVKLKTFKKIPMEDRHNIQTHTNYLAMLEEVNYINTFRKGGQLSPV
Substitution | normalised enrichment score
PKAIRKLHFEAEV [D11A] | 1.77
PKAIRKLTFEDEV [H8T] | 2.25
PKAIRKHHFEDEV [L7H] | 0.259
PKAIRKLHFEDLV [E12L] | 2.06
PKAIRKMHFEDEV [L7M] | 0.49
PKAIRELHFEDEV [K6E] | 0.268
PVAIRKLHFEDEV [K2V] | 0.688
PKAIRKLSFEDEV [H8S] | 1.36
PKAIRKLHFEMEV [D11M] | 1.44
PKAIRKLHIEDEV [F9I] | -0.289
PKAIRKLHFLDEV [E10L] | 0.545
PKAIRMLHFEDEV [K6M] | 0.896

Block 3 — target: CREB3L1, bZIP domain (human); method: DHFR protein complementation; sample: yeast; relative to: wild-type JUN-FOS pair; reading: higher = stronger binding
Notes: single substitutions, most at no-binding floor
Starting sequence: JUN, bZIP domain (human); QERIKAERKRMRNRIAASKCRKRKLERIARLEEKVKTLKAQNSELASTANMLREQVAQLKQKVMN; partner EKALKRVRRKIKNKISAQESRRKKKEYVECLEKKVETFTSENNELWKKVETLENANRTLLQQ
Substitution | binding fitness [natural log]
E33L | -1.51
L52V | -1.45
E44T | -1.42
L45M | -1.57
I28Y | -1.54
T48I | -1.36
L31N | -1.49
K39M | -1.26
N42F | -1.52

Other studies, line by line
Molecule | target | assay | system | conditions | scale | measurement | value
PhoQ, residues 284 288 289 292 302 303 TNSAEL | PhoP, residues 12 14 15 18 19 SMASL (Escherichia coli, UniProt P23836) | Sort-seq, item: YFP reporter | E. coli | PhoQ-PhoP variant library, with: 10 µM Mg2+ | relative to: high Mg2+ state, higher = stronger signaling | fold induction | 2.14

Some of these lines once more (block 2):
Substitution | normalised enrichment score
PKAIRMLHFEDEV [K6M] | 0.896
PKAIRELHFEDEV [K6E] | 0.268
PKAIRKLTFEDEV [H8T] | 2.25
